Measurements collected from several papers.
Every numbered part comes from another study and shows a few of its results, in no order.
Sequence of UniProt P10721 (whole entry, unmodified, looked up): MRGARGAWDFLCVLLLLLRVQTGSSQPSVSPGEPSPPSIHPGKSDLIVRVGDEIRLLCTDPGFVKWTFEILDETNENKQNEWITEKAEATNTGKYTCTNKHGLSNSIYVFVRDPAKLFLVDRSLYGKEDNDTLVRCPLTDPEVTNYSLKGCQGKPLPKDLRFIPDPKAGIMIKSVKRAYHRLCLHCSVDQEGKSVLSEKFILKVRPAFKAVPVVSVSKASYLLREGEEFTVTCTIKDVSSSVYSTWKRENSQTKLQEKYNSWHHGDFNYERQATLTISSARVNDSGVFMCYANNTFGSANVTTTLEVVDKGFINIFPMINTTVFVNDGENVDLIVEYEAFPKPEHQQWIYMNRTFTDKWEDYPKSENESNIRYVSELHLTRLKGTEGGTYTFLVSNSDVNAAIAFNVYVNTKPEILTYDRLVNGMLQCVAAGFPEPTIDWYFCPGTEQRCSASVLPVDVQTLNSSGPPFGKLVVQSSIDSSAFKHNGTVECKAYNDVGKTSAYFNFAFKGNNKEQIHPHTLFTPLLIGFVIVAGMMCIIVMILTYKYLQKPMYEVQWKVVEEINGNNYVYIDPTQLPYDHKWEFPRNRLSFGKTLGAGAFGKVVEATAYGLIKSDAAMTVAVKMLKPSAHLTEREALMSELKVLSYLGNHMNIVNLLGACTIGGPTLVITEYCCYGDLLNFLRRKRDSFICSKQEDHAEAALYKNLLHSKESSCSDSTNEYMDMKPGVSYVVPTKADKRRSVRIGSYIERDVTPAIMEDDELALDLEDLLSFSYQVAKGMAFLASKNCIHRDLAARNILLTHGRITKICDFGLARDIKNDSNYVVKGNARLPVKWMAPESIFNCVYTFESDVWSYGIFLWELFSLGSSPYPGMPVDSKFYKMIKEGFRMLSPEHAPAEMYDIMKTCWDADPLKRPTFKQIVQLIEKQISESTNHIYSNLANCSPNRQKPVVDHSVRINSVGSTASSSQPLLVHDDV
Sequence of UniProt O15264 (whole entry, looked up): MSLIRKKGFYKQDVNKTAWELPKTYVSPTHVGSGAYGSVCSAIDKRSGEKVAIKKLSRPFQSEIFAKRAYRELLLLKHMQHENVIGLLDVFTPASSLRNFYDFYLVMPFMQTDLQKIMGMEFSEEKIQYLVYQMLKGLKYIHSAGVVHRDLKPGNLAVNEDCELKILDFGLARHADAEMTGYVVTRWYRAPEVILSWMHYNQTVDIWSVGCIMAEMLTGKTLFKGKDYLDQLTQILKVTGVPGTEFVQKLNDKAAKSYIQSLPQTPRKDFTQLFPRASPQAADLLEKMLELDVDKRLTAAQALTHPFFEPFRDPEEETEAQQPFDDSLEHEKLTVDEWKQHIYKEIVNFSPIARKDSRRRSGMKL
Sequence of UniProt Q5VT25 (whole entry, looked up): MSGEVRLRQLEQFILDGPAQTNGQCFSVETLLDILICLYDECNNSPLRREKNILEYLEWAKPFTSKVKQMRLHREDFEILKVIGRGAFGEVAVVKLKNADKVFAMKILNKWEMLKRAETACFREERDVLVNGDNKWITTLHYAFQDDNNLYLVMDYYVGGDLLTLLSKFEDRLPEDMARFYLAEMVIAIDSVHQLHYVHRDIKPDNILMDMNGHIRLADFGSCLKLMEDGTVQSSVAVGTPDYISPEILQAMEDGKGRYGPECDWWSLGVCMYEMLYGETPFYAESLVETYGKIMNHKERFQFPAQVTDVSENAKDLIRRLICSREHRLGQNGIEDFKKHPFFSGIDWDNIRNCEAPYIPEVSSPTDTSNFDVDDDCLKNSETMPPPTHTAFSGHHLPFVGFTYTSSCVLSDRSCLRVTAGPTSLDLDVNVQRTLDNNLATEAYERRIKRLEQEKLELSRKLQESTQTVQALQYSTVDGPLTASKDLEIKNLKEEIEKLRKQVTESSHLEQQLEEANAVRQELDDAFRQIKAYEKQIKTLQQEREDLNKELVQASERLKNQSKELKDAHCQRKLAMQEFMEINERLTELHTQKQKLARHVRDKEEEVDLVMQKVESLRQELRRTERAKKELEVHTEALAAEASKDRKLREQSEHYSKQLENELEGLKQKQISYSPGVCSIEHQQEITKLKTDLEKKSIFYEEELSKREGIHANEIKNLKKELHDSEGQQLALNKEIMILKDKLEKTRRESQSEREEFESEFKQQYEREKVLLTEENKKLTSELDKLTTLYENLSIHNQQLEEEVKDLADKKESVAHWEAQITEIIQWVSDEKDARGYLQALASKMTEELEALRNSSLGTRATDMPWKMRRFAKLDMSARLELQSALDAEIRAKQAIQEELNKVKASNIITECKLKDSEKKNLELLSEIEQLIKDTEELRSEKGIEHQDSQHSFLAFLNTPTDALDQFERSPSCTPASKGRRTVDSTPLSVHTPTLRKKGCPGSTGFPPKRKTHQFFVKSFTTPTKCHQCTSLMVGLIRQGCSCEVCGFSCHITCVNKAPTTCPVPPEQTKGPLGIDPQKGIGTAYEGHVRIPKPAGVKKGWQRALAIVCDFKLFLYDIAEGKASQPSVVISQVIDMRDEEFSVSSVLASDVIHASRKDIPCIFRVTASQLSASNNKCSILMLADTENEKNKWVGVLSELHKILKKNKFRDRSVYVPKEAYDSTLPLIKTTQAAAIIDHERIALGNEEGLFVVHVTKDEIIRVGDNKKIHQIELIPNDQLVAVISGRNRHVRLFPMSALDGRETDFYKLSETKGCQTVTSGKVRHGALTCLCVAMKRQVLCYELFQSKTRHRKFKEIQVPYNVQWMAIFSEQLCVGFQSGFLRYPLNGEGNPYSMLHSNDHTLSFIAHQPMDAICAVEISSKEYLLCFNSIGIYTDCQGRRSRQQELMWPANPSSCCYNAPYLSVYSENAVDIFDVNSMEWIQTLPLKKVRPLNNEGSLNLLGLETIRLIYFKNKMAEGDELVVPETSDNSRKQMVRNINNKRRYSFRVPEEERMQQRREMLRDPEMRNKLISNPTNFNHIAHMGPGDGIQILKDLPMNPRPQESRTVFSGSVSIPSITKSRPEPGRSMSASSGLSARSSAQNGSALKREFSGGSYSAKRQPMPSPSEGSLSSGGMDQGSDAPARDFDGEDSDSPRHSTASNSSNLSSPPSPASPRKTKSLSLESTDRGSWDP
Sequence of UniProt P54762 (whole entry, looked up): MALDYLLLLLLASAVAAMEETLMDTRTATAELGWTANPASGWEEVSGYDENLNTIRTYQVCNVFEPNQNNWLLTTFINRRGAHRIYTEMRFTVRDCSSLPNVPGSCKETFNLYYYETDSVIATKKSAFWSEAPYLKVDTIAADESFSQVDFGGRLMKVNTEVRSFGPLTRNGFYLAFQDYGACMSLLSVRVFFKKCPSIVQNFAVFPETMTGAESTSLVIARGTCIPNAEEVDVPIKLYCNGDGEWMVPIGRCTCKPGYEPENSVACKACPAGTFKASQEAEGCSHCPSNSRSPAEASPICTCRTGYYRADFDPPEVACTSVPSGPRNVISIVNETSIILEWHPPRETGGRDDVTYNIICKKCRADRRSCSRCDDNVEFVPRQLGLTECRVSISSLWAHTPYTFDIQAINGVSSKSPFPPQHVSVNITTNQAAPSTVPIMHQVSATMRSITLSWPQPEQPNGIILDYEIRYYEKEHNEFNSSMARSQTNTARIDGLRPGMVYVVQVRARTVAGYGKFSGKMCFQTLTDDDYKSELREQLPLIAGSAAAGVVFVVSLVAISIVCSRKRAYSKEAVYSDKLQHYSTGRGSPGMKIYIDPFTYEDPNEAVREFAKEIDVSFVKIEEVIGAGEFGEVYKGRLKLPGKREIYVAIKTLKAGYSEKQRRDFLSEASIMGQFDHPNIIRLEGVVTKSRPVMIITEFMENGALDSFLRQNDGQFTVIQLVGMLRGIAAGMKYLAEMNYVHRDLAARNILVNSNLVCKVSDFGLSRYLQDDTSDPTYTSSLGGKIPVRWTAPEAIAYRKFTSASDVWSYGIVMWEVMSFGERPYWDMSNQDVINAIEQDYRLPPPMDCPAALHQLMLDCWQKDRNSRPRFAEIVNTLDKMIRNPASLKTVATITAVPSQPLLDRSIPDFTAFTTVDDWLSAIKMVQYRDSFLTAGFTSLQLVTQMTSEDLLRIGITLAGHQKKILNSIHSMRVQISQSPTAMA
Sequence of UniProt P45983 (whole entry, looked up): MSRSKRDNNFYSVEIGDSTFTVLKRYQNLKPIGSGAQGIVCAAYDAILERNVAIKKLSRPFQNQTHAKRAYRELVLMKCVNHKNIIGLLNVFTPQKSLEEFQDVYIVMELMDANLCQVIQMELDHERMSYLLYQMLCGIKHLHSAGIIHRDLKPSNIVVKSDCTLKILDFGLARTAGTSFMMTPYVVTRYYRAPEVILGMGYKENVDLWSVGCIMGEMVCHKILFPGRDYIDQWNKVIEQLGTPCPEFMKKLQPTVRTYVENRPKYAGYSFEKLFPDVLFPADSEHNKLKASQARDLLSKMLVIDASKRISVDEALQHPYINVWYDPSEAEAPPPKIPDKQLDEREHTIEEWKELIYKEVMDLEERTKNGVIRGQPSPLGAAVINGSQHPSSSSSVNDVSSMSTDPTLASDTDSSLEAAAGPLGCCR
Sequence of UniProt Q8NE63 (whole entry, looked up): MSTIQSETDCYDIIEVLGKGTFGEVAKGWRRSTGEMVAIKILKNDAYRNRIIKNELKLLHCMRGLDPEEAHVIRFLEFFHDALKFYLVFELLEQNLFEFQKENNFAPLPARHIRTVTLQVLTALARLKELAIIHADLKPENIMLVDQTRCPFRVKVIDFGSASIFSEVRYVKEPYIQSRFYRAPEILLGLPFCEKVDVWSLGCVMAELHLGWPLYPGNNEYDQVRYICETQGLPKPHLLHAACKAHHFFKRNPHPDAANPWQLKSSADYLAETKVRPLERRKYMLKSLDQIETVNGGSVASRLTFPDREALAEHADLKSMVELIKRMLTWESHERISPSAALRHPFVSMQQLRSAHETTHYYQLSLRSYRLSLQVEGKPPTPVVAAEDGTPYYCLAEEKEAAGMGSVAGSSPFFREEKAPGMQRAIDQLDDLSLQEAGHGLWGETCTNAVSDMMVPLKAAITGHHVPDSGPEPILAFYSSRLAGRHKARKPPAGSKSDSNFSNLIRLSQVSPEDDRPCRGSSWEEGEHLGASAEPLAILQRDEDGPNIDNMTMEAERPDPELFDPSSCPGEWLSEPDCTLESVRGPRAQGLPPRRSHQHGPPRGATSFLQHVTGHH

Block 1 — mode: inhibitor; concentration: 10 µM; relative to: control
Target: Diamine acetyltransferase 1 (Homo sapiens, UniProt P21673)
Residues (P21673 1-171): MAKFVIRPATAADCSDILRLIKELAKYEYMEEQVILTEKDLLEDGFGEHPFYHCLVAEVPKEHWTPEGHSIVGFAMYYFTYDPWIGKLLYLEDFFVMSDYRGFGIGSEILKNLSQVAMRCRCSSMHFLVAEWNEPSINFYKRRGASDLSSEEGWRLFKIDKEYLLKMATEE
| SMILES | remaining activity [%] |
| --- | --- |
| COc1cc(/C=C/CO)ccc1O[C@@H]1O[C@H](CO)[C@@H](O)[C@H](O)[C@H]1O | 101 |
| OC[C@@H](O)[C@@H](O)[C@H](O)[C@H](O)CO | 89.9 |
| COc1cc2c(cc1OC)[C@@H](Cc1ccc(Oc3cc(C[C@@H]4c5cc(OC)c(OC)cc5CCN4C)ccc3O)cc1)N(C)CC2 | 97 |
| c1ccc(CNc2ncnc3[nH]cnc23)cc1 | 75.5 |
| COc1cc(C(=O)O)cc(OC)c1O | 83.7 |
| c1ccc2c(c1)CCO2 | 91.6 |
| O=C1/C(=C/c2ccc(O)c(O)c2)Oc2cc(O)ccc21 | 105 |
| OC[C@H](O)C(O)[C@@H](O)CO | 99.2 |

Block 2 — read-out: cell-free assay; method: competition with immobilised ligand; concentration: 0.1 µM
SMILES: COCCOc1nc(-c2ccc(Cl)nc2)nc2c1CN(C(=O)c1ncn3ccccc13)CC2
| target | remaining binding [%] |
| --- | --- |
| RET (Homo sapiens, UniProt P07949, V804L) | 100 |
| TLK1 (Homo sapiens, UniProt Q9UKI8) | 100 |
| Ribosomal protein S6 kinase alpha-4, N-terminal kinase domain (RPS6KA4, Homo sapiens, UniProt O75676) | 86 |
| WEE2 (Homo sapiens, UniProt P0C1S8) | 100 |
| MAPK13 (Homo sapiens, UniProt O15264) | 100 |
| HIPK4 (Homo sapiens, UniProt Q8NE63) | 83 |
| Mast/stem cell growth factor receptor Kit, autoinhibited (KIT, Homo sapiens, UniProt P10721) | 100 |
| EGFR (Homo sapiens, UniProt P00533, L858R/T790M) | 100 |
| RIPK4 (Homo sapiens, UniProt P57078) | 100 |
| EGFR (Homo sapiens, UniProt P00533, del747-750/T751S) | 100 |
| MYLK4 (Homo sapiens, UniProt Q86YV6) | 100 |
| FLT3 (Homo sapiens, UniProt P36888, R834Q) | 65 |
| ALK (Homo sapiens, UniProt Q9UM73, C1156Y) | 100 |
| MINK1 (Homo sapiens, UniProt Q8N4C8) | 100 |
| HUNK (Homo sapiens, UniProt P57058) | 78 |
| EPHB1 (Homo sapiens, UniProt P54762) | 100 |
| FLT3 (Homo sapiens, UniProt P36888, D835H) | 100 |
| KIT (Homo sapiens, UniProt P10721, V559D) | 100 |
| MAP4K3 (Homo sapiens, UniProt Q8IVH8) | 100 |
| SIK3 (Homo sapiens, UniProt Q9Y2K2) | 100 |
| CDC42BPA (Homo sapiens, UniProt Q5VT25) | 100 |

Block 3 — read-out: enzyme activity; mode: inhibitor; concentration: 1 µM
Structure (SMILES): CC(C)S(=O)(=O)c1ccc2nccc(Nc3ccc4sc(C5CCCC5)nc4c3)c2c1
| target | activity vs control |
| --- | --- |
| NEK6 (Homo sapiens, UniProt Q9HC98) | 94% |
| MELK (Homo sapiens, UniProt Q14680) | 99% |
| TNIK (Homo sapiens, UniProt Q9UKE5) | 88% |
| PLK3 (Homo sapiens, UniProt Q9H4B4) | 99% |
| MAPK8 (Homo sapiens, UniProt P45983) | 104% |
| HIPK1 (Homo sapiens, UniProt Q86Z02) | 99% |
| CLK4 (Homo sapiens, UniProt Q9HAZ1) | 93% |

Block 4 — read-out: enzyme activity; mode: inhibitor; concentration: 0.5 µM; relative to: control
SMILES: NC(=O)c1ccc(N(C(N)=O)c2c(F)cccc2F)nc1-c1ccc(F)cc1F
| target | remaining activity [%] |
| --- | --- |
| TGFBR1 (Homo sapiens, UniProt P36897) | 96.7 |
| Protein kinase C beta type, isoform beta-I (PRKCB, Homo sapiens, UniProt P05771) | 86.1 |
| GRK3 (Homo sapiens, UniProt P35626) | 98.1 |
| OXSR1 (Homo sapiens, UniProt O95747) | 96.9 |
| Cyclin-dependent kinase 4, with cyclin D1 (CDK4, Homo sapiens, UniProt P11802) | 96.8 |
| CHEK2 (Homo sapiens, UniProt O96017) | 97.6 |
| Cyclin-dependent kinase 5, with p25 (CDK5, Homo sapiens, UniProt Q00535) | 95.9 |
| MAP3K3 (Homo sapiens, UniProt Q99759) | 118 |
| Tyrosine-protein kinase Lyn, isoform B (LYN, Homo sapiens, UniProt P07948) | 106 |
| DAPK1 (Homo sapiens, UniProt P53355) | 98.2 |

Some of these lines once more (block 1):
| SMILES | remaining activity [%] |
| --- | --- |
| COc1cc(/C=C/CO)ccc1O[C@@H]1O[C@H](CO)[C@@H](O)[C@H](O)[C@H]1O | 101 |
| c1ccc2c(c1)CCO2 | 91.6 |
| O=C1/C(=C/c2ccc(O)c(O)c2)Oc2cc(O)ccc21 | 105 |
| OC[C@@H](O)[C@@H](O)[C@H](O)[C@H](O)CO | 89.9 |
| OC[C@H](O)C(O)[C@@H](O)CO | 99.2 |
